Measured values gathered from unrelated publications.
Protocols differ between the studies behind these lines. “And” joins repeats or separate records; there may be more than shown. Numbers after ± are the reported error.

| Substance | tested on | test | test system | setting | how to read | endpoint | result |
| --- | --- | --- | --- | --- | --- | --- | --- |
| Ivermectin | Trypanosoma cruzi | parasite growth, CPRG | Vero, Tulahuen (DTU VI) β-galactosidase | – | – | IC50 | 0.00111 mM |
| CTGTTACTCT | Salmonella enterica serovar Typhimurium | RNA-seq, refers to: sfcA (SL1344_1496) | peptide, SL1344 | 5 µM, 15 min | reference: water control | log2 fold change | -1.63 |
| Polymyxin B | Staphylococcus aureus | – | – | concentration not given, with: NaCl 150 mM | reference: no added salt | MIC fold change | 8 fold |
| Polymyxin B | Staphylococcus aureus | – | CGMCC 1.9 | concentration not given, 18 h, 37 °C | – | inhibition zone diameter | 11 mm |
| GCCATGCTTT (PNA, CPP-conjugated) | Salmonella enterica serovar Typhimurium | refers to: CFU | peptide, SL1344, Caenorhabditis elegans infection model, worms | 2 × MIC, 24 h | reference: untreated | bacterial load reduction | 82.4% |
| Polymyxin B | Pseudomonas aeruginosa | – | ATCC 27853 | 31.2 µg per disc, 24 h, 37 °C | – | inhibition zone diameter | 8 mm |
| Polymyxin B | Klebsiella pneumoniae | – | ATCC 43863 | concentration not given | – | catalase activity | 0.278 U/mol and 0.298 U/mol and 0.312 U/mol |
| CTCATACTCT | Salmonella enterica serovar Typhimurium | RNA-seq, refers to: target gene SL1344_1133 | peptide, SL1344 | 5 µM, 15 min | reference: water control | log2 fold change | -2.09 |
| colistin | Klebsiella pneumoniae | – | 9904, RPMI 1640 10% FBS | 18 to 24 h, 37 °C | – | MIC | 40 µM |
| colistin | Escherichia coli | broth microdilution | clinical isolate RKI-No_524/16 | – | – | MIC | 8 µg/mL |
| CTCATAGACT | Salmonella enterica serovar Typhimurium | RNA-seq, refers to: kup (SL1344_3847) | peptide, SL1344 | 5 µM, 15 min | reference: water control | log2 fold change | -1.99 |
| TCATCCGCTG (PNA, CPP-conjugated) | Salmonella enterica serovar Typhimurium | – | peptide, SL1344 | 10 µM, 8 h | reference: untreated | log reduction | 5.94 log CFU/mL |
| Nisin | Bacillus subtilis | – | ATCC 6633 | concentration not given | – | nucleoid width | 0.58 µm and 0.59 µm and 0.51 µm |
| polymyxin B1 | Pseudomonas aeruginosa | broth microdilution | ATCC 27853 | with: Survanta 10% (2.5 mg/mL phospholipid) | reference: without surfactant | MIC fold increase | 8 fold |
| CTCTAACTCT | Salmonella enterica serovar Typhimurium | RNA-seq, refers to: mig-14 (SL1344_2765) | peptide, SL1344 | 5 µM, 15 min | reference: water control | log2 fold change | 1.99 |
| colistin | Pseudomonas aeruginosa | – | PA1804 PER-producing isolate | – | – | MIC | 2 µg/mL |
| CTTTCATGCG (PNA, CPP-conjugated) | Salmonella enterica serovar Typhimurium | – | peptide, SL1344 | 10 µM, 8 h | reference: untreated | log reduction | 1.68 log CFU/mL |
| CTCAATCTCT | Salmonella enterica serovar Typhimurium | RNA-seq, refers to: nhaA (SL1344_0040) | peptide, SL1344 | 5 µM, 15 min | reference: water control | log2 fold change | -1.27 |
| POTE ankyrin domain J (human) | CYB5R4 knockout human cells | PP6 interaction, 3xFLAG-PP6C IP-MS | – | concentration not given | reference: CYB5R4 KO over parental | log2 fold change | -0.59 |
| gentamicin sulfate | Staphylococcus aureus | – | ATCC 43300, resistant | 18 h, 37 °C, dark | – | MIC | 128 µM |
| human eIF4A1 | PP6C (human) | co-immunoprecipitation, IP-MS | CYB5R4 knockout cells | concentration not given | reference: CYB5R4 knockout over parental | log2 fold change | 0.52 |
| milbemycin oxime | Saccharomyces cerevisiae | cell growth | Pdr5 deleted, Cdr1 overexpressed | 2^-6.966 µg/mL, with: fluconazole 1 µg/mL | – | OD600 | 1.01 and 1.03 and 1.02 |
| GACATACTCT | Salmonella enterica serovar Typhimurium | RNA-seq, refers to: nuoB (SL1344_2296) | peptide, SL1344 | 5 µM, 15 min | reference: water control | log2 fold change | -2.54 |
| Phosphate | Saccharomyces cerevisiae | cell growth, OD600 after 22 h | PfPiT-expressing strain | with: 93 mM NaH2PO4 | – | EC50 | 17 ± 1 mM |

Excerpt of the above:
| Substance | tested on | test | test system | setting | how to read | endpoint | result |
| --- | --- | --- | --- | --- | --- | --- | --- |
| Nisin | Bacillus subtilis | – | ATCC 6633 | concentration not given | – | nucleoid width | 0.58 µm and 0.59 µm and 0.51 µm |
| human eIF4A1 | PP6C (human) | co-immunoprecipitation, IP-MS | CYB5R4 knockout cells | concentration not given | reference: CYB5R4 knockout over parental | log2 fold change | 0.52 |
